Earlier results that unrelated publications cite.
Each line is one published result; not all experiments were run side by side. Numbers after ± are the reported error. Converted amounts (≈) assume the structure as drawn.
Sequence of UniProt Q99683 (whole entry, looked up): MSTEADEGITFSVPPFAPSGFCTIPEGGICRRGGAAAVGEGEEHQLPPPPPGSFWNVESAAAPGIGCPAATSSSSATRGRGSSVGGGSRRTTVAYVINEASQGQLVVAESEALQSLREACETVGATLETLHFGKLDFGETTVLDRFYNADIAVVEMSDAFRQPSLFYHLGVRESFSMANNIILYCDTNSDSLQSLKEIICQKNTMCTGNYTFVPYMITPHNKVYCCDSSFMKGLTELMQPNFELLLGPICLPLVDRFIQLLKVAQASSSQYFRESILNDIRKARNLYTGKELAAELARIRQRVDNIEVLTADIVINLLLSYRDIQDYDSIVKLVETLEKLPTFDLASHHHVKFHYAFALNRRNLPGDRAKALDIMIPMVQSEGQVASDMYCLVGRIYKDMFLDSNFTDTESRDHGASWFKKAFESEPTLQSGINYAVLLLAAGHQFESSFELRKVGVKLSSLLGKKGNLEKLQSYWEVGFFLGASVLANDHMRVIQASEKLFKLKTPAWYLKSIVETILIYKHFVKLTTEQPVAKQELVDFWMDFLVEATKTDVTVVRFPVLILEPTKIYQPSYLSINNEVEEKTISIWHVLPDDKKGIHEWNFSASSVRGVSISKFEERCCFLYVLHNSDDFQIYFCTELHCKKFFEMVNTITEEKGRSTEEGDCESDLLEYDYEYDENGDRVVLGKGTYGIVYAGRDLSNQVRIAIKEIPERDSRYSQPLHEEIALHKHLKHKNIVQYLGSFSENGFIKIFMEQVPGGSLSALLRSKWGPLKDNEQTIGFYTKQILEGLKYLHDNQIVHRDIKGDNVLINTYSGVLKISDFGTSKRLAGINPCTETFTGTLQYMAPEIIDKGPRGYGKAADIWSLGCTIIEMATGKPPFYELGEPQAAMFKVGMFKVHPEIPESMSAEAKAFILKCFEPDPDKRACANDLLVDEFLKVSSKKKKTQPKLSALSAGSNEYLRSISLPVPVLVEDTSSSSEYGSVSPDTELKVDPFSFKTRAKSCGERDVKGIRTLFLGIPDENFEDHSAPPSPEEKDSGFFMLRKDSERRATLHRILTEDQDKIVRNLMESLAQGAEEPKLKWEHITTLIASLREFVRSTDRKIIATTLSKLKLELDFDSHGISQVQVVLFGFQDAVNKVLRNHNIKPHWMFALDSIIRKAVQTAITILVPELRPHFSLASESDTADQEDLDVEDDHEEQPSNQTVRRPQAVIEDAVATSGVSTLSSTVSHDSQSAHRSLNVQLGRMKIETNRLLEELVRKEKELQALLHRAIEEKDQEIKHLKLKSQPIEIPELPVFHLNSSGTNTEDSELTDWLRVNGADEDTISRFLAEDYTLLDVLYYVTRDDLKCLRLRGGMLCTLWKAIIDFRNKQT

C=CC(=O)N1CCC([C@@H]2CCNc3c(C(N)=O)c(-c4ccc(Oc5ccccc5)cc4)nn32)CC1 — Cmax (human patients; oral, 80 mg once daily, day 8): 179 ± 80 ng/mL
O=C1NCCN1CCN1CCC(c2cn(-c3ccc(F)cc3)c3ccc(Cl)cc23)CC1 — Cmax (plasma; concentration not given, total concentration): 131 nM
COc1cc2c(Oc3ccc4[nH]c(C)cc4c3F)ccnc2cc1OCC1(N)CC1 — Cmax (human; 12 mg/day, two cycles): 61.6 ± 16.3 ng/mL
Cc1nnc(SCC2=C(C(=O)O)N3C(=O)[C@@H](NC(=O)Cn4cnnn4)[C@H]3SC2)s1 — Cmax (plasma; concentration not given, total, literature data): 407000 nM
O=C(O)Cc1ccccc1Nc1c(Cl)cccc1Cl — Cmax (plasma; concentration not given, total, steady state): 6280 nM
Nc1cc(C(F)(F)F)c(-c2nc(N3CCOCC3)nc(N3CCOCC3)n2)cn1 — remaining activity (MAP3K5 (Homo sapiens, UniProt Q99683); enzyme activity; 10 µM; reference: untreated): 55%
COc1ccc(CCN2CCC(Nc3nc4ccccc4n3Cc3ccc(F)cc3)CC2)cc1 — Cmax (plasma; concentration not given, total, steady state): 2 nM
CNC(C)C1CCC(N)C(OC2C(N)CC(N)C(OC3OCC(C)(O)C(NC)C3O)C2O)O1 (stereo not drawn) — MIC (Enterobacter cloacae; clinical isolate RKI-No_506/15): 2 µg/mL (≈ 4.19 µM)
CCCN1CCCC[C@H]1C(=O)Nc1c(C)cccc1C — Cmax (plasma; concentration not given, total concentration): 1770 nM
CC1(C)S[C@@H]2[C@H](NC(=O)[C@H](N)c3ccccc3)C(=O)N2[C@H]1C(=O)O — MIC (Enterobacter cloacae; clinical isolate RKI-No_113/16): > 16 µg/mL
CNC(=O)c1ccccc1Sc1ccc2c(/C=C/c3ccccn3)n[nH]c2c1 — Cmax (plasma; concentration not given, total, steady state): 160 nM
COCCc1ccc(OCC(O)CNC(C)C)cc1 (stereo not drawn) — Cmax (human fasted; 200 mg multiple doses, day 7, mean): 108 ng/mL
CNCc1cc(-c2ccccc2F)n(S(=O)(=O)c2cccnc2)c1 — Cmax (human, plasma; 30 mg multiple dose, observed clinical data): 40.1 ng/mL
Cc1nsc(-c2nnc3n2CCN(C(=O)c2ccc(F)cc2)[C@@H]3C)n1 — Cmax (human; oral, 20 mg, day 1, fed): 153 ng/mL
CCCCCCCCCCCCCCCC(=O)N[C@@H](CCC(=O)NCCCC[C@@H]1NC(=O)[C@H]([C@@H](C)CC)NC(=O)[C@@H](NC(=O)[C@@H]2CCCN2C(=O)[C@H](Cc2ccccc2)NC(=O)[C@H](Cc2c[nH]cn2)NC(=O)[C@@H](NC(=O)[C@H](CC(=O)O)NC(=O)CC(C)C)[C@@H](C)O)CSSC[C@@H](C(=O)N[C@@H](CCCCN)C(N)=O)NC(=O)CNC(=O)[C@H](CCCCN)NC(=O)[C@H](CO)NC(=O)[C@H](CCCNC(=N)N)NC(=O)[C@@H]2CCCN2C(=O)[C@H](CCC(=O)O)NC(=O)[C@H](Cc2ccccc2)NC1=O)C(=O)O — Cmax (cynomolgus monkey, plasma; subcutaneous, 0.3 mg/kg, 8 h post-dose): 172 ± 31 nM

Some of these lines once more:
O=C1NCCN1CCN1CCC(c2cn(-c3ccc(F)cc3)c3ccc(Cl)cc23)CC1 — Cmax (plasma; concentration not given, total concentration): 131 nM
COc1cc2c(Oc3ccc4[nH]c(C)cc4c3F)ccnc2cc1OCC1(N)CC1 — Cmax (human; 12 mg/day, two cycles): 61.6 ± 16.3 ng/mL
Cc1nnc(SCC2=C(C(=O)O)N3C(=O)[C@@H](NC(=O)Cn4cnnn4)[C@H]3SC2)s1 — Cmax (plasma; concentration not given, total, literature data): 407000 nM
